Measurements of several laboratories.
A part holds a random share of what one study measured. Substitutions count along the parent as printed.

Sample 1
Target: Histone acetyltransferase KAT6A, winged helix 1, GST fusion (KAT6A, Homo sapiens, UniProt Q92794, residues 1-85)
Technique: protein binding microarray
Molecule type: double-stranded DNA, one strand shown
Matrix: in vitro
Concentration: not given
Notes: 8-mer, flanks averaged, mean of 2 arrays, mostly near background
Baseline: not given
Reading: higher = stronger binding
Endpoint: E-score
Residues (chain): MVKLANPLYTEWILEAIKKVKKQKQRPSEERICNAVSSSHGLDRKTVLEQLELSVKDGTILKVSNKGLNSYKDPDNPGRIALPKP
CCCTCACG: -0.0927
CGATTCGA: -0.13
GCAAATGA: -0.233
CTGACTTA: -0.109
CAATGAGA: -0.279
AATTAGCT: -0.144
CCCATGCA: -0.229
ACTGAAGG: -0.0528
GACCTAGC: -0.0304
AGCAATAC: -0.0729
CGTTGATC: -0.0989
ATACCGAT: -0.0381
CGACCGGC: 0.224
ATTGACAC: 0.0265
CGATAACA: -0.00366
AACACACA: -0.199
CATTGTAA: -0.0777
ACAAAGTC: -0.189
TAACGTAA: -0.0373
GCCGAGCA: 0.21
CCGATCGG: 0.33
GATCAACC: 0.0421
GCGGGGAA: 0.239
ATAAGATA: -0.0862
ATCCTTGG: -0.181

Sample 2
Target: Ras GTPase-activating protein-binding protein 1, RRM domain (G3BP1, Homo sapiens, UniProt Q13283)
Sequence of UniProt Q13283 (whole entry, looked up): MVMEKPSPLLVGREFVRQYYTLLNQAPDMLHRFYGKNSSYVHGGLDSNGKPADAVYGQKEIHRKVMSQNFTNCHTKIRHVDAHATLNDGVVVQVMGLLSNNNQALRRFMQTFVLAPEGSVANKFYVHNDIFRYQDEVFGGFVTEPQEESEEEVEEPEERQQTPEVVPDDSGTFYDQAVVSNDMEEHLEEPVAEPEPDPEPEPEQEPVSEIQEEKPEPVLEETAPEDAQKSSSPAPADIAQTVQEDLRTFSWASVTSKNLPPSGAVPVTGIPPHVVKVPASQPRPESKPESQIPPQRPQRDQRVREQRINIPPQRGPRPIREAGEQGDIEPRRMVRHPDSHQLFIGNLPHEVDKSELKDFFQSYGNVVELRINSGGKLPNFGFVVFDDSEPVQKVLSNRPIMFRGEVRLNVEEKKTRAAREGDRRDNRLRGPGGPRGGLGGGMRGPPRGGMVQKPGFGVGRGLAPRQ
Technique: RNA Bind-n-Seq
Molecule type: RNA
Matrix: in vitro
Concentration: 1 µM
Notes: whole 134-nt RNA, ends assumed
Added: 150 mM KCl
Baseline: input library
Reading: higher = stronger binding
Endpoint: log2 enrichment
Constant ends, left off below: GGGAGUUCUACAGUCCGACGAUC … UGGAAUUCUCGGGUGUCAAGG
UUGGACUAUGGAUCAGGUACUGUGCUCAGCAUCAGAAAAUGGGAUGACAAUGAACAGAGUAACAGGACUAUAUUUCUGAAAAAGGAUGAA: -0.136
AGUCCUGUGCUACACAUCGUAUGUACCGAAUCGGGCCCCCGGGCCCCCGGGCCCCCGGAAAGUAUUAUGUUACGCCGUUCGGAUCUGCAC: -0.746
UGGCCCUGCUGGCAUGCGGGGAGGAAGAGGUGGCCUCAUGGAUCGUGGUGGUCCCGGUGGAAUGUUCAGAGGUGGCCGUGGUGGAGACAG: 0.911
CCUCAAGUCCUGUGCUACACAUCGUAUGUACCGAAUCGGUUGGUUGGGUUGGAAAGUAUUAUGUUACGCCGUUCGGAUCUGCACUUCCAG: -0.256
GCAGGACGUAAAAACAAAUGGAAAUGCUUCGGAUAGUGGCAGGGGUGGGGGUUGCUAAGGAAAGGGUGGGAUGGGAGUGGGUAAAGAGUU: 1.01
AAGUCCUGUGCUACACAUCGUAUGUACCGAAUCGGGGUUUUGGUUUUGGGGUUUUGGAAAGUAUUAUGUUACGCCGUUCGGAUCUGCACU: -0.233
GCAGGAAGUAAAAACAAAUGGAAAUGCUUCGAAUAGUGGCAGGGGUGGGGGUUGCUAAGGAAAGGGUGGGAUGGGAGUGGGUAAAGAGUU: 1.49
CCUGUGCUACACAUCGUAUGUACCGAAUCGGAAAAAAAGGGGAAAAAAAGGGAAAAAAAGGAAAGUAUUAUGUUACGCCGUUCGGAUCUG: -0.0256
CUGUGCUACACAUCGUAUGUACCGAAUCGGCCCCCCCGGGGCCCCCCCGGCCCCCCCGGGGAAAGUAUUAUGUUACGCCGUUCGGAUCUG: -0.42
GUCCUGUGCUACACAUCGUAUGUACCGAAUCGGGUUUUUUUGGGUGGGUUUUUUUGGGAAAGUAUUAUGUUACGCCGUUCGGAUCUGCAC: 0.22
ACCAUGCAGGUGGGCAUCUUUGGGAAGUGGGGCAAGGGGGGGAUAGGGAGGGGGGUAACAGUUUGGGAACAGGUGGUCCCAGGUCGUUUC: 0.987
CUCAAGUCCUGUGCUACACAUCGUAUGUACCGAAUCGGGCCGGCCGGCCGGGGAAAGUAUUAUGUUACGCCGUUCGGAUCUGCACUUCCA: -0.299
ACCAUGCAGGUGGGCAUCUUUGGGAAGUGGGGCAAGGGGGGGAUAGGUAGGGGGGUAACACUUUGGGAACAGGUGGUCCCAGGUCGUUUC: 0.935
AAGUCCUGUGCUACACAUCGUAUGUACCGAAUCGGUUUUUGGUUUUUUUGGAAAGGAAAGUAUUAUGUUACGCCGUUCGGAUCUGCACUU: -0.193

Sample 3
Target: Interferon regulatory factor 3, full length, phosphomimetic (IRF3, Homo sapiens, UniProt Q14653, residues 1-427, S386D/S396D/S398D/S402D/T404D/S405D)
Technique: protein-binding microarray
Molecule type: double-stranded DNA, one strand shown
Matrix: in vitro
Concentration: 2540 nM top
Notes: 60-bp whole probe
Added: salmon DNA 0.4 mg/ml
Baseline: random background probes
Reading: higher = stronger binding
Endpoint: fitted relative affinity
Constant ends, left off below: GCCTAGCAC … GTCTTGATTCGCTTGACGCTGCTG
Target sequence (chain): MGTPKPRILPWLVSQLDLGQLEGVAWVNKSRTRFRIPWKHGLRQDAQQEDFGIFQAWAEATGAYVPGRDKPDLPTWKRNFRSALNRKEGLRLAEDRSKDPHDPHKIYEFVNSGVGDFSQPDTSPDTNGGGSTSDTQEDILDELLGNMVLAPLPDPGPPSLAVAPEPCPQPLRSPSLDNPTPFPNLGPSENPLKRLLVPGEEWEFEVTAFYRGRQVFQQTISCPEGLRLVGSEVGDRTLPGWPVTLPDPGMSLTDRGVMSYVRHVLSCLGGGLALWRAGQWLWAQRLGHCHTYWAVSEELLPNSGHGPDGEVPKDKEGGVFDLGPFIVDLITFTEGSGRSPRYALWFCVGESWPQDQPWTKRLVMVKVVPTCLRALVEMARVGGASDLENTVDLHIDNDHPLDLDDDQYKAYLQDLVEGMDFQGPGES
GACGGTTTCCTTAACCTGACGTGCTAG: 5.12 z-score
TCACTTTTTAAGATCTGACTGTGCTAG: 1.17 z-score
TCAGACCTCGTCTCTATCACTGTGCTA: -0.0994 z-score
TCATAATTCTTTGCTCATACTGTGCTA: 0.273 z-score
GTTTATTTATTTTTACATTAGTGCTAG: 1.58 z-score
TACGGACTGCTACTGCTGACGTGCTAG: -0.699 z-score
GCCGGTATCGGGTATCGGGACGTGCTA: 2.37 z-score
CATCCAGCAGAGAGCCTCAGGTGCTAG: -0.1 z-score
TTAGGTCTCCTTATCCTCTAGTGCTAG: 2.83 z-score
TTAGGAATCGGTTTCGGTTAGTGCTAG: 6.42 z-score
TCATATTTAAGGCCTATGACTGTGCTA: 0.358 z-score
GACGGTATCGGTCTCGCGACGTGCTAG: 4.39 z-score
GACGGACTGGACTTTCGGAACGTGCTA: 1.47 z-score
TTAGGTATCGGGACTCGGTTAGTGCTA: 1.12 z-score
CACGGACTGGACACTGGGGACGTGCTA: -0.624 z-score
TTAGATATCTGGTTTCGATTAGTGCTA: 2.75 z-score

Sample 4
Target: UBE2N UBC core domain (UniProt P61088)
Sequence of UniProt P61088 (whole entry, looked up): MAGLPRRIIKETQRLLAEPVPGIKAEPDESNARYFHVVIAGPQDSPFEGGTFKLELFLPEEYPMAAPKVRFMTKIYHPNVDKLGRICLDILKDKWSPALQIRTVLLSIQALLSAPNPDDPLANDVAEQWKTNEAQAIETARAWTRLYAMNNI
Technique: yeast two-hybrid
Matrix: yeast
Notes: mostly zero background
Baseline: not given
Reading: higher = stronger interaction
Endpoint: lacZ reporter activity
B1: RFWD3 RING domain (UniProt Q6PCD5); chain ASMDEEEGDTCTICLEQWTNAGDHRLSALRCGHLFGYRCISTWLKGQVRKCPQCNKKARHSDIVV
B2: TRIM62 RING domain (UniProt Q9BVG3); chain MACSLKDELLCSICLSIYQDPVSLGCEHYFCRRCITEHWVRQEAQGARDCPECRRTFAEPALAP
B3: RNF19A RING domain (UniProt Q9NV58); chain ISKQIGDFIECPLCLLRHSKDRFPDIMTCHHRSCVDCLRQYLRIEISESRVNISCPECTERFNPHDIR
B4: MDM4 RING domain (UniProt O15151); chain MEDCQNLLKPCSLCEKRPRDGNIIHGRTGHLVTCFHCARRLKKAGASCPICKKEIQLVIKVF
B5: SH3RF1 RING domain (UniProt Q7Z6J0); chain DESALLDLLECPVCLERLDASAKVLPCQHTFCKRCLLGIVGSRNELRCPECRTLVGSGVEEL
B6: MAP3K1 RING domain (UniProt Q13233); chain NSIKDEEEQMCPICLLGMLDEESLTVCEDGCRNKLHHHCMSIWAEECRRNREPLICPLCRSKWRSHDFYS
NLSELTPYILCSICKGYLIDATTITECLHTFCKSCIVRHFYYSNRCPKCNIVVHQTQPLY (PCGF6 RING domain (UniProt Q9BYE7)): 0
FDGDVDPDLKCALCHKVLEDPLTTPCGHVFCAGCVLPWVVQEGSCPARCRGRLSAKELN (PDZRN3 RING domain (UniProt Q9UPQ7)): 0
B1 (RFWD3 RING domain): 5220
B2 (TRIM62 RING domain): 0
YQNEVDDDLVCHICLQPLLQPLDTPCGHTFCYKCLRNFLQEKDFCPLDRKRLHFKLCKK (LNX2 RING domain (UniProt Q8N448)): 0
KLRKLKEAMLCMVCCEEEINSTFCPCGHTVCCESCAAQLQSCPVCRSRVEHVQHVY (MYLIP RING domain (UniProt Q8WY64)): 0
B3 (RNF19A RING domain): 0
B4 (MDM4 RING domain): 0
GSRLQEINDVCAICYHEFTTSARITPCNHYFHALCLRKWLYIQDTCPMCHQKVYIEDDIK (RNF139 RING domain (UniProt Q8WU17)): 0
B5 (SH3RF1 RING domain): 0
AMYLQENGIDCPKCKFSYALARGGCMHFHCTQCRHQFCSGCYNAFYAKNKC (RNF31 RING domain (UniProt Q96EP0)): 0
B6 (MAP3K1 RING domain): 7100

Sample 5
Target: CCNE2, cyclin fold, Cln2 fusion (human)
Technique: yeast growth competition, sequencing
Matrix: yeast
Notes: strong parent motif
Baseline: not given
Reading: higher = stronger binding
Endpoint: normalised enrichment score
Starting sequence: RBL1 docking peptide (human); GSAKRRLFGEDPP
G1D: 4.29
L7T: -0.41
A3S: 0.618
P13K: 3.28
P13G: 3.69
E10K: 2.45
R6Q: 2.39
S2N: 4.35
G1H: 4.82
D11G: 3.66
F8Y: 0.692
A3V: 6.37
K4C: 3.58
R6V: 3.07
G1V: 5.35
G1M: 4.17
L7Y: 1.23
G9T: 5.3
P13D: 3.93
G9N: 4.85
L7I: 1.8
R5M: 0.241
G1N: 5.32
L7M: 0.352
G9A: 6.18

Sample 6
Target: FOS, bZIP domain (human)
Technique: DHFR protein complementation
Matrix: yeast
Notes: single substitutions, most at no-binding floor
Baseline: wild-type JUN-FOS pair
Reading: higher = stronger binding
Endpoint: binding fitness
Starting sequence: JUN, bZIP domain (human); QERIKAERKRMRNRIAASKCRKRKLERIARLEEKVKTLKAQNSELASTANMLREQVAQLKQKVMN; partner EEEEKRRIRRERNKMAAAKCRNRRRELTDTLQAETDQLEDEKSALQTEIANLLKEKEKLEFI
T37V: -0.0186 natural log
E54P: -1.14 natural log
S43L: -0.0304 natural log
K36S: -0.0749 natural log
A46C: -0.278 natural log
V56L: -0.492 natural log
L38R: -1.16 natural log
A49W: -0.763 natural log
T37C: -0.0489 natural log
E33V: -0.334 natural log
S43C: -0.0624 natural log
L38P: -1.24 natural log
K39S: -0.451 natural log
A46I: -0.142 natural log
E32I: -0.225 natural log
S43H: -0.0165 natural log
L59R: -1.21 natural log
K36T: -0.119 natural log
K34F: -0.631 natural log
S47E: 0.118 natural log
E33Y: -0.71 natural log
K36E: -0.0199 natural log
E44M: -0.0537 natural log
E33P: -1.26 natural log
E33A: -0.0771 natural log
